Measurements pooled from the literature.
Compare with care: the assays were run in different laboratories. ± gives the spread as reported.
Chain of UniProt P60335 (whole entry, looked up): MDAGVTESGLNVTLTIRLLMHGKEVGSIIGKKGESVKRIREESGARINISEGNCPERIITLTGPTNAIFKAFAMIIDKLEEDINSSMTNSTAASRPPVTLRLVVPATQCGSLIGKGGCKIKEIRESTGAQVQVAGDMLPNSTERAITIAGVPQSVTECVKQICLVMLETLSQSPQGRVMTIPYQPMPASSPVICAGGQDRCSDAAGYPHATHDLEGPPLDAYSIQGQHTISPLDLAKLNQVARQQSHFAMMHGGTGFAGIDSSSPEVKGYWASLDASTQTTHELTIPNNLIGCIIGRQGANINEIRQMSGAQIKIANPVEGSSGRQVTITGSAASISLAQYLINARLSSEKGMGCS
Chain of UniProt P21693 (whole entry, looked up): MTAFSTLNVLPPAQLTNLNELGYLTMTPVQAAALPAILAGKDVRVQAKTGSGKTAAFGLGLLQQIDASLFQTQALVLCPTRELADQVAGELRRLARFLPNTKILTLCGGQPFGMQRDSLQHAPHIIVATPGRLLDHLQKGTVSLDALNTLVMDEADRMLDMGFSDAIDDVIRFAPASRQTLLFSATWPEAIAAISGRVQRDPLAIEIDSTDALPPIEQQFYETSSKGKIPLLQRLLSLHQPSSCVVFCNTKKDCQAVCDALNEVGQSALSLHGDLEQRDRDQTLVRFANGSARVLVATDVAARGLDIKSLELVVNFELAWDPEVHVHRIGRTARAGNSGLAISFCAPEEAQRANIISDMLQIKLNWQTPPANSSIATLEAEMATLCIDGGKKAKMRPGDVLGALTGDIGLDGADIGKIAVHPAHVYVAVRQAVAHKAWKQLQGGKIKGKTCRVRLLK
Chain of UniProt P15401 (whole entry, looked up): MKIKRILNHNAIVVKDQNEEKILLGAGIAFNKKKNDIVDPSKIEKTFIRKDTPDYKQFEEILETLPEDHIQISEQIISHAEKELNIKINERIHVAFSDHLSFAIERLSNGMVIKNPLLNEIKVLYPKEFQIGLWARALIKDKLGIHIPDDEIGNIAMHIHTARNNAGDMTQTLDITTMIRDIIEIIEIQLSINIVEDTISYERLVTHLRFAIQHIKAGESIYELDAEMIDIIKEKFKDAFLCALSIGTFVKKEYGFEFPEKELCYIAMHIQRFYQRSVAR
Chain of UniProt P38996 (whole entry, looked up): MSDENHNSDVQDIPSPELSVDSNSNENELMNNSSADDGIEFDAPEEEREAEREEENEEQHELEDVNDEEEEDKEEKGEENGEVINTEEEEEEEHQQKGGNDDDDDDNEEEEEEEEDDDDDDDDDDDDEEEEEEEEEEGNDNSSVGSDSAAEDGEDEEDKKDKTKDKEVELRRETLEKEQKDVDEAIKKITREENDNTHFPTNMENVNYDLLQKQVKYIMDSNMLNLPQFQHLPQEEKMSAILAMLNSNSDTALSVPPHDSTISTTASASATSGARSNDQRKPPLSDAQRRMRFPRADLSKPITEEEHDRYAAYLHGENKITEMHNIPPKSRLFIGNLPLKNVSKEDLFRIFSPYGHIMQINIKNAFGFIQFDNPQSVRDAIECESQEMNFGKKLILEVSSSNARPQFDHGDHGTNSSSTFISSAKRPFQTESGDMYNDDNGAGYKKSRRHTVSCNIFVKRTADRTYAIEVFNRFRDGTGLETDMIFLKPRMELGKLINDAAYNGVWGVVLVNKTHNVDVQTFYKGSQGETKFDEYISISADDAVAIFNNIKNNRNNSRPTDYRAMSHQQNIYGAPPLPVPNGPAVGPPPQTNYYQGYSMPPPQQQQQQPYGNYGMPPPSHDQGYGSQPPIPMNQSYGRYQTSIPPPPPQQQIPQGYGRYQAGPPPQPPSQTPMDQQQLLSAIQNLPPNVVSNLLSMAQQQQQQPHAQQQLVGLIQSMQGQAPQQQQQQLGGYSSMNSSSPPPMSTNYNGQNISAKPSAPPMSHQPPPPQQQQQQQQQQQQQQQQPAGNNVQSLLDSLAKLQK

| Strand | target | assay | system | setting | measurement | result |
| --- | --- | --- | --- | --- | --- | --- |
| GCCCTGAAAGATTATGGAATGAGATTAGGGTAAAGGAAGAGAGCATAATCTTTCAGGGC (hairpin DNA; hairpin, 16 bp stem, 27 nt loop) | topA full length assumed R169A (Escherichia coli, UniProt P06612) | fluorescence anisotropy | folded DNA | with: EDTA | Kd | 0.00055 ± 0.00012 µM |
| GGUUUGUUACUGAUAAAGCAGGCAAGACC (ssRNA (Bacillus subtilis); hairpin, two internal loops) | sacY 1-55 (Bacillus subtilis, UniProt P15401) | SPR | folded RNA | – | Kd | 6.2 ± 2.5 µM |
| CUCUCUUACACAUUCCA (ssRNA) | nusB full length assumed D118N (Escherichia coli, UniProt P0A780) | fluorescence anisotropy | RNA | – | Kd | 12.2 ± 1.6 µM |
| AAUUGCUACCCAAUGCCUGGCCCAAGGGCAUUCCCAAAGCUUA (ssRNA) | Pcbp1 full length assumed (Mus musculus, UniProt P60335) | EMSA | RNA | – | binding | binds |
| CCCCGUAGAAAAUCUUAGUAAUCCUUCUUACAUUG (ssRNA) | NAB3 321-415 (Saccharomyces cerevisiae, UniProt P38996) | fluorescence anisotropy | RNA | – | Kd | 46 ± 1 µM |
| AAUUGCUAACCAAUGCCUGGCCCAAGGGCAUUCCCAAAGCUUA (ssRNA) | Pcbp1 97-162 (Mus musculus, UniProt P60335) | EMSA | RNA | – | binding | no binding |
| GGUUGAAGCAGACGACC (hairpin RNA; hairpin, 7-nt loop) | Putative PAS/PAC sensor protein full length assumed (Nakamurella multipartita, UniProt C8XJT7) | fluorescence anisotropy | folded RNA | 22 °C, with: blue light | Kd | 0.012 ± 0.001 µM |
| GCCCTGAAAGATTATGGAATGGGATTAGGGTAAAGGAAGAGAGCATAATCTTTCAGGGC (hairpin DNA; hairpin, 16 bp stem, 27 nt loop) | topA full length assumed Y177S (Escherichia coli, UniProt P06612) | fluorescence anisotropy | folded DNA | with: EDTA | Kd | 0.00046 ± 8e-05 µM |
| AUUUUUUUUUUUUAGGUCUUAAGGGUAUGGCUGUUCGCCAUUU (structured RNA) | dbpA full length assumed (Escherichia coli, UniProt P21693) | SPR | folded RNA | KCl 50 mM, steady state, no ATP | Kd | 0.0603 ± 0.0004 µM |

Some of these lines once more:
| Strand | target | assay | system | setting | measurement | result |
| --- | --- | --- | --- | --- | --- | --- |
| GGUUUGUUACUGAUAAAGCAGGCAAGACC (ssRNA (Bacillus subtilis); hairpin, two internal loops) | sacY 1-55 (Bacillus subtilis, UniProt P15401) | SPR | folded RNA | – | Kd | 6.2 ± 2.5 µM |
